Measured values gathered from unrelated publications.
Each line is one published result; not all experiments were run side by side. “And” joins repeats or separate records; there may be more than shown. ± marks the error that the study gave.
uidA: Beta-glucuronidase (uidA, Escherichia coli, UniProt P05804)
Sequence of UniProt P05804 (whole entry, looked up): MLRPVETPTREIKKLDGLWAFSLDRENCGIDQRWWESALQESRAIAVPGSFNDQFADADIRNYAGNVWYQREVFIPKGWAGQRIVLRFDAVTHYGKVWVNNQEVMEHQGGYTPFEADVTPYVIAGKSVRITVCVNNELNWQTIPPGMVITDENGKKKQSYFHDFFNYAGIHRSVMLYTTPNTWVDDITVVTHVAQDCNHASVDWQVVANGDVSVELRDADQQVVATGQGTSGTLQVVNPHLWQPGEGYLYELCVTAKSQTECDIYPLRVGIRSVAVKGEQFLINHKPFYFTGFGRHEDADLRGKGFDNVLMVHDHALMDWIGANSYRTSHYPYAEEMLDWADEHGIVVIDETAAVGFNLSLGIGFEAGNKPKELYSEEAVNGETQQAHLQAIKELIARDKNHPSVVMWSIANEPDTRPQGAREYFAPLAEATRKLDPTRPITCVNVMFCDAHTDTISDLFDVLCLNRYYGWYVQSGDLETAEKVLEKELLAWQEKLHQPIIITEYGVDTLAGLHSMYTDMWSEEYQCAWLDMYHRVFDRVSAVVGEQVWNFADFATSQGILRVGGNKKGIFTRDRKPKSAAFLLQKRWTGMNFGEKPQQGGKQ
Sequence of UniProt P40763 (whole entry, looked up): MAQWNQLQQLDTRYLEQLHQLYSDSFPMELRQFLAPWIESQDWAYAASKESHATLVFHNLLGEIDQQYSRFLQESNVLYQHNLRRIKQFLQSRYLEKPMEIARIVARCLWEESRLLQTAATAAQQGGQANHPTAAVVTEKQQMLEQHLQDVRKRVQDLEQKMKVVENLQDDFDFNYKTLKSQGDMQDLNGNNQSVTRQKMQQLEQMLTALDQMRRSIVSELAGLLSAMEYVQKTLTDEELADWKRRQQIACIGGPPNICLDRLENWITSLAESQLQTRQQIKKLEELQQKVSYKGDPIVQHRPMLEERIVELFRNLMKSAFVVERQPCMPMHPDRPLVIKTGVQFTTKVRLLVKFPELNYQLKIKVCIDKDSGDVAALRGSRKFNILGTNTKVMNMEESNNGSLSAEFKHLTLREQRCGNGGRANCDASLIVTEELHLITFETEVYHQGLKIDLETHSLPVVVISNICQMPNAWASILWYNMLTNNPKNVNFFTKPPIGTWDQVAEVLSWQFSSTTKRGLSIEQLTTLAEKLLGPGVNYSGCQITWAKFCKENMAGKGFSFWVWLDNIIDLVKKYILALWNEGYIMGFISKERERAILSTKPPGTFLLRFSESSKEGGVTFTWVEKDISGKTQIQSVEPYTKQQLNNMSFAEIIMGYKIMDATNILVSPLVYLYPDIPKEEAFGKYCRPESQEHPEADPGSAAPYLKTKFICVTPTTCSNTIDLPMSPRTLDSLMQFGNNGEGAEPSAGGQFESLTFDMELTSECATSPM
Sequence of UniProt O14672 (whole entry, looked up): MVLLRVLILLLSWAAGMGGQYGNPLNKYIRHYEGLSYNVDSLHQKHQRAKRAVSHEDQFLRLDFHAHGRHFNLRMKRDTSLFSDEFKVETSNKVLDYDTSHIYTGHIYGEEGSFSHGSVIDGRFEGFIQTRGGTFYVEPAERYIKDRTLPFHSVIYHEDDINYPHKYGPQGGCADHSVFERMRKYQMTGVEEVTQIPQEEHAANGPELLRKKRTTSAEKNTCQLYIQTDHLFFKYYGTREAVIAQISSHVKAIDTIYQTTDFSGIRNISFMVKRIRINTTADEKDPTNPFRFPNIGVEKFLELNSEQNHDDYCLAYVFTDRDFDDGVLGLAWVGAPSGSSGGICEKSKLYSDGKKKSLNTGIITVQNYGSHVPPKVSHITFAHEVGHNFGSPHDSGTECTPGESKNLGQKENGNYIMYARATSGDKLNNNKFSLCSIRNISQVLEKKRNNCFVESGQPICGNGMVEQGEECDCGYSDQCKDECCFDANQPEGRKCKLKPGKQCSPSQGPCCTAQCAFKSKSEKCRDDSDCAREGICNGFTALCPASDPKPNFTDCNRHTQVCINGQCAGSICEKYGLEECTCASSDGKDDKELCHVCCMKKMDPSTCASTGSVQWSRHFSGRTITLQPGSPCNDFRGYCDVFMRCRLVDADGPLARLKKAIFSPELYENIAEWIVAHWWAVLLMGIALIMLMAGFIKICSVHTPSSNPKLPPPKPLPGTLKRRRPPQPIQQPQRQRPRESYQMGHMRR
Sequence of UniProt P35499 (whole entry, looked up): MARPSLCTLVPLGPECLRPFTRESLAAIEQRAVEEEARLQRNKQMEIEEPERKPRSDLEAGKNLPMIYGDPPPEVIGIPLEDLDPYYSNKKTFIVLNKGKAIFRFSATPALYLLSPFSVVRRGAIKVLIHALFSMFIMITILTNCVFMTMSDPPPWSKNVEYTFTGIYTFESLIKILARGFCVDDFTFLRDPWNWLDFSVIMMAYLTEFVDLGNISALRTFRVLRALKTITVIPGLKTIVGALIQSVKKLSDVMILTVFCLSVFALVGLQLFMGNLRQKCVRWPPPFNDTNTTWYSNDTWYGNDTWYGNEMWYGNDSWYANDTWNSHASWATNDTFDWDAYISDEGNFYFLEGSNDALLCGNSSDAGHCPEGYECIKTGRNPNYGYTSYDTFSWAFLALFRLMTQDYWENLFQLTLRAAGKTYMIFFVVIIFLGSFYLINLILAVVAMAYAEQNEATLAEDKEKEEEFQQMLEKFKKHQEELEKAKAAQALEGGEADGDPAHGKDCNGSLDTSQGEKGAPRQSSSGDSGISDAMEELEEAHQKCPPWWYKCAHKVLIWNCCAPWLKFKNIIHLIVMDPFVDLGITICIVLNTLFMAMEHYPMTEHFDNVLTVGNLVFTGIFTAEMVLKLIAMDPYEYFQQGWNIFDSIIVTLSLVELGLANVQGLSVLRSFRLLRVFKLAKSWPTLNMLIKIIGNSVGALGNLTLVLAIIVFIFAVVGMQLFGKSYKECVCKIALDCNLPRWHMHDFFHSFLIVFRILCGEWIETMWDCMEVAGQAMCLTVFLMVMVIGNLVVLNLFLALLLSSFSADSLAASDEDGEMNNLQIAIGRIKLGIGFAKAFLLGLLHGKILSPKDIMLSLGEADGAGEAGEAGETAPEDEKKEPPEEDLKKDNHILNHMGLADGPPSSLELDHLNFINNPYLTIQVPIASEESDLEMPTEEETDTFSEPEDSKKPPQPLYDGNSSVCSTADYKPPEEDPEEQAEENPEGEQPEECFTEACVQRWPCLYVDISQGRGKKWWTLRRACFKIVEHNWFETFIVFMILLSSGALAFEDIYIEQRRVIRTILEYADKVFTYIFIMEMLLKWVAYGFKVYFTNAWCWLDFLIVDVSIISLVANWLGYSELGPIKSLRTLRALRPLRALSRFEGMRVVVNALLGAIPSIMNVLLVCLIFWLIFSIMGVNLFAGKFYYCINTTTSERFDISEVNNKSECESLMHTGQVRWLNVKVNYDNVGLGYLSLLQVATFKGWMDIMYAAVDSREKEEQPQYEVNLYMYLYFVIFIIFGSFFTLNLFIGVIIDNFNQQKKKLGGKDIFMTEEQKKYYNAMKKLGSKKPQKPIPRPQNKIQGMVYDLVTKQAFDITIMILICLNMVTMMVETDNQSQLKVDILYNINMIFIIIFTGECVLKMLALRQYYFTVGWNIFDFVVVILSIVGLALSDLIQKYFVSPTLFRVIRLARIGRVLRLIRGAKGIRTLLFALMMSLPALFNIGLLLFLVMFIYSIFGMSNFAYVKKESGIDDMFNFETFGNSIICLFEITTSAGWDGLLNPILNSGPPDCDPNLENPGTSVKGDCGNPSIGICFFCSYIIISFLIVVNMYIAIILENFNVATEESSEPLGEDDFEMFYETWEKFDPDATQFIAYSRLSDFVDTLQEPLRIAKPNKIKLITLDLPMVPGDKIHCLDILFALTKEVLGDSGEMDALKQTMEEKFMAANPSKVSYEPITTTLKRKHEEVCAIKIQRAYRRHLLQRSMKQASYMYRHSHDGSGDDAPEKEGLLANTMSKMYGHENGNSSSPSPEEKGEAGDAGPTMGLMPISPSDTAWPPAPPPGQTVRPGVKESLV
Sequence of UniProt P08684 (whole entry, looked up): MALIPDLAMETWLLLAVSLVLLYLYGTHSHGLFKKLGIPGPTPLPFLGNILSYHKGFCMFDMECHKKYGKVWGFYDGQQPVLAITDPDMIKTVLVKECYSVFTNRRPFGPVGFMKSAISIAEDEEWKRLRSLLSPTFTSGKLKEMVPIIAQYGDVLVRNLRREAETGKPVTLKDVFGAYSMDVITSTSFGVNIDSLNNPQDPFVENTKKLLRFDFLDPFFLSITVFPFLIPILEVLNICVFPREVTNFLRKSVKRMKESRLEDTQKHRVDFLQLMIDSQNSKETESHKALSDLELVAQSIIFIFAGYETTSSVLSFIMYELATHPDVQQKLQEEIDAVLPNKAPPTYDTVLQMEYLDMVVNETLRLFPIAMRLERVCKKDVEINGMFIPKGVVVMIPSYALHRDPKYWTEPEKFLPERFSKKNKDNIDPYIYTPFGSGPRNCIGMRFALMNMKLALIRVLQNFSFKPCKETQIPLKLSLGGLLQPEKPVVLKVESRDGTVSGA
Sequence of UniProt P55210 (whole entry, looked up): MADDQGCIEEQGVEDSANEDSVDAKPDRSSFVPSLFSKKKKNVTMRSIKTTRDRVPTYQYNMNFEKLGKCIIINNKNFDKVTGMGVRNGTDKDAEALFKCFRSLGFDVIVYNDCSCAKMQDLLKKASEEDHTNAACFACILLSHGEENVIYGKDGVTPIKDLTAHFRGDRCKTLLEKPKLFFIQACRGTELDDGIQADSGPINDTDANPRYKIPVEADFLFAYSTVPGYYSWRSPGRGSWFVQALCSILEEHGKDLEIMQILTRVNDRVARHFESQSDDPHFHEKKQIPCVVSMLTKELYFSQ
Sequence of UniProt P04228 (whole entry, looked up): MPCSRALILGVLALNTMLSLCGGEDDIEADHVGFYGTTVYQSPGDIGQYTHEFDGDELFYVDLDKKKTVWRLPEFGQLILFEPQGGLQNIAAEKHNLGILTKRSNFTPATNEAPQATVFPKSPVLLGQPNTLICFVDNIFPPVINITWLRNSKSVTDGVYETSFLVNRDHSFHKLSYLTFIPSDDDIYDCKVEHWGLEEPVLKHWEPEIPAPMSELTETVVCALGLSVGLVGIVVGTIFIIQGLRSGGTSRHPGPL

| SMILES | target | test | test system | conditions | IC50 |
| --- | --- | --- | --- | --- | --- |
| CN1CCN(c2nnnc3c2sc2nc(N4CCOCC4)c4c(c23)CCCC4)CC1 | uidA | enzyme activity, inhibitor, absorbance | – | pH 7.5 | 12800 nM |
| COC(=O)C=CCCC(NC(=O)c1ccncc1C(=O)O)C(=O)NC(C(=O)N1CC(=O)CC1C(=O)NC(C(=O)NC(C(N)=O)C1CCCCC1)C1CCCCC1)C(C)(C)C (centres unmarked) | Coagulation factor XIII A chain (Crab-eating macaque, UniProt A0A7N9D9X7) | isopeptidase activity, inhibitor | – | with: A101 substrate | 15 ± 0.1 nM |
| C/C(=C\C(=O)N[C@@H](CC(C)C)C(=O)N1C[C@H](O)C[C@H]1C(=O)N[C@H](C)CCC(N)=O)c1ccc(OP(=O)(O)O)cc1 | Signal transducer and activator of transcription 3 (STAT3, Homo sapiens, UniProt P40763) | phosphopeptide binding, inhibitor, fluorescence polarization | – | – | 166 ± 10 nM |
| Cc1cc(S(=O)(=O)Nc2ncccn2)c(F)cc1N(C)C1CCN([C@H](C)c2ccccc2)CC1 | Sodium channel protein type 4 subunit alpha (SCN4A, Homo sapiens, UniProt P35499) | sodium current, inhibitor, automated patch clamp | – | inactivated state protocol | 153000 nM |
| N=C(N)NCCC[C@H](NC(=O)[C@@H](N)CS)C(=O)N[C@@H](CC(N)=O)C(=O)N[C@@H](CC(N)=O)C(=O)O | PPO3 (Agaricus bisporus, UniProt C7FF04) | enzyme activity, inhibitor | – | – | 87200 nM |
| CCOc1cc(/C=C2\Sc3ccccc3C2=O)cc(Br)c1OCC(=O)O | Prostatic acid phosphatase (ACP3, Homo sapiens, UniProt P15309) | enzyme activity, inhibitor | – | – | 15400 nM |
| O=C(NCCN1CCC2(CC1)C(=O)NCN2Cc1cccnc1)c1cc2ccccc2[nH]1 | Phospholipase D1 (Homo sapiens, UniProt Q13393) | enzyme activity, inhibitor | – | – | 3600 nM |
| CC[C@H](C)[C@@H]1NC(=O)[C@H](Cc2ccccc2)NC(=O)[C@H](CC(N)=O)NC(=O)[C@@H](NC(=O)[C@@H](NC(=O)[C@H](CO)NC(=O)[C@@H](N)Cc2ccc(O)cc2)[C@@H](C)O)CSC(=O)[C@H](CCSC)NC1=O | accessory gene regulator protein C (Staphylococcus aureus, UniProt O33587) | – | – | – | 4.53 nM |
| O=C(O)/C=C/c1ccc(O)cc1 | alpha-glucosidase | inhibitor | – | – | 96 µg/mL and 108 µg/mL |
| O=C(CCl)c1ccc(F)cc1 | Fosb/Jund, ΔFosB isoform (Mus musculus, UniProt P13346+P15066) | ΔFOSB/JUND DNA binding, fluorescence polarization | – | 15 min, with: TMR-cdk5 oligonucleotide | > 200000 nM |
| CC(=O)N[C@@H](CC(C)C)C(=O)N[C@@H](CCC(=O)O)C(=O)N[C@@H](CO)C(=O)N[C@@H](CC(=O)O)C(=O)CCl | Caspase-7 (CASP7, Homo sapiens, UniProt P55210) | enzyme activity, inhibitor, fluorescence | – | – | 72000 nM |
| COC(=O)c1ccc(-n2nc(-c3ccccc3O)nc2-c2ccccc2O)cc1 | 5-lipoxygenase | – | – | – | 26900 ± 3540 nM |
| CCCCCCCCCCCCCCCc1ccc(C(F)P(=O)(O)O)cc1 (racemic) | Autotaxin (ENPP2, Homo sapiens, UniProt Q13822) | enzyme activity, inhibitor | – | with: FS-3 1 µM | 17900 nM |
| O=C(NCCCCCCCn1ccc2ccccc21)Oc1ccccc1 | Fatty-acid amide hydrolase 1 (Faah, Rattus norvegicus, UniProt P97612) | – | rat brain homogenate | 60 min, 37 °C | 51 nM |
| N[C@H](C(=O)N1CCCC1)C1CCN(c2nccc3c(-c4ncc(Cl)cc4Cl)cccc23)CC1 | Protein-arginine deiminase type-4 (PADI4, Homo sapiens, UniProt Q9UM07) | enzyme activity, fluorescence quenching | – | with: Ca2+ 0.4 mM | 42.7 nM |
| NC[C@@H]1[C@@H](O)[C@@H](O)[C@H]2[C@H](O)CCCN21 | Alpha-mannosidase 2 (Homo sapiens, UniProt Q16706) | enzyme activity, inhibitor, 4-MU fluorogenic | – | with: Man-α-4MU 5 mM | 650 nM |
| O=C(O)c1cc2ccccc2n1Cc1ccccc1 | Indoleamine 2,3-dioxygenase 1 (IDO1, Homo sapiens, UniProt P14902) | inhibitor | – | – | > 500000 nM |
| CSCC[C@H](NC(=O)CNC(=O)[C@H](CCCCN)NC(=O)[C@H](CC(C)C)NC(=O)[C@@H]1CCCN1C(=O)[C@H](CO)NC(=O)[C@H](Cc1c[nH]cn1)NC(=O)[C@H](Cc1c[nH]c2ccccc12)NC(=O)[C@H](CCCNC(=N)N)NC(=O)[C@H](CC(C)C)NC(=O)[C@H](CCCNC(=N)N)NC(=O)[C@H](Cc1c[nH]c2ccccc12)NC(=O)[C@H](CS)NC(=O)CN1CCN(CC(=O)O)CCN(CC(=O)O)CCN(CC(=O)O)CC1)C(=O)O [copper-64 labelled] | PROM1 (Homo sapiens, UniProt O43490) | binding, saturation binding | Huh-7 | – | 52.5 nM |
| CN(C)c1ccc(NC(=O)CCCCCNC(=O)CS)cc1 | Histone deacetylase 2 (HDAC2, Homo sapiens, UniProt Q92769) | enzyme activity, inhibitor | – | – | 17000 nM |

| SMILES | target | test | test system | conditions | IC50 |
| --- | --- | --- | --- | --- | --- |
| C[C@@H]1CN(c2nnnc3c2sc2nc(N4CCOCC4)c4c(c23)CCCC4)CCN1 | uidA | enzyme activity, inhibitor | – | – | 800 nM |
| CC(=O)CCC1C(=O)NC(C(C)C)C(=O)NC(Cc2cc(O)cc(F)c2)C(=O)N2CCCC(N2)C(=O)OC(C(C)=CC=CC(=O)N2CCCCO2)CC=CC=CC(O)C(C)C1O (centres unmarked) | Solute carrier organic anion transporter family member 1B3 (SLCO1B3, Homo sapiens, UniProt Q9NPD5) | transporter uptake, inhibitor | CHO | pH 7.3 | 1750 nM |
| C[C@]1(COC(=O)Cc2ccc(O)c(O)c2)[C@H](C(=O)O)N2C(=O)/C(=C/c3ccccn3)[C@H]2S1(=O)=O | Beta-lactamase OXA-48 (OXA-48, Klebsiella pneumoniae, UniProt Q6XEC0) | inhibitor | – | with: nitrocefin | 3 ± 0.3 nM |
| CC(=O)N[C@H]1CSC(=O)[C@H](Cc2ccccc2)NC(=O)[C@H](CC(C)C)NC(=O)[C@H](CO)NC(=O)[C@H](CO)NC1=O | Receptor-histidine kinase AgrC (agrC, Staphylococcus aureus, UniProt O07911) | – | – | – | 95.9 nM |
| CCCC[C@H]1C(=O)N(C)[C@@H](CCCC)C(=O)N[C@@H](CC(C)C)C(=O)N[C@H](C(=O)NCC(N)=O)CSCC(=O)N[C@@H](Cc2ccc(O)cc2)C(=O)N2CCCC[C@H]2C(=O)N[C@@H](CC(N)=O)C(=O)N2C[C@H](O)C[C@H]2C(=O)N[C@@H](CN)C(=O)N[C@@H](CC(C)C)C(=O)N2C[C@H](O)C[C@H]2C(=O)N[C@@H](Cc2c[nH]c3ccccc23)C(=O)N[C@@H](CCN)C(=O)N[C@@H](Cc2cn(CC(=O)O)c3ccccc23)C(=O)N1C | Programmed cell death 1 ligand 1 (CD274, Homo sapiens, UniProt Q9NZQ7) | inhibitor, TR-FRET | – | – | 13.4 nM |
| O=C(NCCN1CCC2(CC1)C(=O)NCN2C(=O)C1CC1)c1ccc2ccccc2c1 | Phospholipase D2 (Homo sapiens, UniProt O14939) | enzyme activity, inhibitor | – | – | 440 nM |
| O=C1NC(=S)NC(=O)C1=Cc1ccc(-c2cccc([N+](=O)[O-])c2)o1 | Serine/threonine-protein kinase B-raf (BRAF, Homo sapiens, UniProt P15056, V600E) | enzyme activity, inhibitor, ELISA | – | – | 2090 nM |
| Cc1ccc(/C=C/C(=O)c2ccc(N3CCNCC3)cc2)cc1 | Beta-secretase 1 (BACE1, Homo sapiens, UniProt P56817) | enzyme activity, inhibitor, fluorescence | – | with preincubation | 15500 nM |
| CC(C)[C@H]1NC(=O)C[C@H]2/C=C/CCSSC[C@@H](NC1=O)C(=O)N[C@H](C)C(=O)NCC(=O)O2 | Phosphatidylinositol 4,5-bisphosphate 3-kinase catalytic subunit alpha isoform, with p85 (PIK3CA, Homo sapiens, UniProt P42336) | enzyme activity, inhibitor, mobility shift | – | – | > 100000 nM |
| CC(C)C[C@@H]1NC(=O)[C@H](CCCNC(=N)N)NC(=O)[C@H](CCCCN)NC(=O)[C@H](CC(=O)O)NC(=O)[C@H](CCCCN)NC(=O)[C@@H](CO)NC1=O | Disintegrin and metalloproteinase domain-containing protein 10 (ADAM10, Homo sapiens, UniProt O14672) | enzyme activity, inhibitor, fluorescence | – | – | > 10000 nM |
| Oc1cc(O)c2c(c1)OC(c1ccc(O)c(O)c1)C(OC1(c3ccc(O)c(O)c3)Oc3cc(O)cc(O)c3C(O)C1O)C2 (centres unmarked) | mRNA cap guanine-N(7) methyltransferase, with RAM (RNMT, Homo sapiens, UniProt O43148) | N7-methyltransferase activity, inhibitor, Py-FLINT | – | RNMT-RAM complex, with: SAM 20 µM | 1000 ± 100 nM |
| Cc1ccc2nc(C)c(C(=O)NCc3cccs3)n2c1 | Cytochrome P450 3A4 (CYP3A4, Homo sapiens, UniProt P08684) | enzyme activity, inhibitor | – | with: VR substrate | > 50000 nM |
| Nc1ncnc2c1ncn2[C@@H]1O[C@H](CSCCNC(=O)NCCc2ccccc2)[C@@H](O)[C@H]1O | Protein arginine N-methyltransferase 5 (PRMT5, Homo sapiens, UniProt O14744) | enzyme activity, inhibitor, radiometric | – | – | 13000 nM |
| CC(=O)SC[C@@H](C)C(=O)Nc1ccccc1-c1nn[nH]n1 | Metallo-beta-lactamase VIM-2 (VIM-2, Escherichia coli, UniProt Q5U7L7) | enzyme activity, inhibitor, fluorescence | – | with preincubation | 630 nM |
| CC(C)C[C@H](NC(=O)[C@H](CO)NC(=O)[C@H](Cc1ccc(O)cc1)NC(=O)CNC(=O)[C@H](CCCNC(=N)N)NC(=O)[C@H](Cc1ccc(O)cc1)NC(=O)[C@@H](N)CC(N)=O)C(=O)NCC(=O)N[C@@H](CC(N)=O)C(N)=O | MHC class II I-A g7 (Mus musculus, UniProt P04228+Q31135) | peptide binding, competitor, competition ELISA | – | at least 24 h, pH 7.0, room temperature, with: biotinylated HEL 10-23 200 nM | > 50000 nM |
| CC[C@H](C)[C@H](NC(=O)[C@@H](N)Cc1ccc(O)cc1)C(=O)N[C@@H](Cc1ccccc1)C(=O)N[C@@H](CC(N)=O)C(=O)N[C@@H](CC(C)C)C(=O)O | Mu-type opioid receptor (OPRM1, Homo sapiens, UniProt P35372) | binding, radioligand displacement | DU-145 | with: [3H]DAMGO | 0.0652 ± 5.8e-14 nM |
| O=C(O)CNCP(=O)(O)O | IMP-28 metallo-beta-lactamase | enzyme activity, inhibitor, FC5 fluorescent substrate | – | 60 pM enzyme, 1 µM ZnSO4 | > 200000 nM |
| Cc1cc(C(=O)COn2nnc3ccc(S(C)(=O)=O)cc32)c(C)n1C | Genome polyprotein, 3C protease (rhinovirus B14, UniProt P03303) | 3C protease activity, SAMDI-MS | human rhinovirus | – | > 100000 nM |
| CC(C)[C@H](NC(=O)c1ccc(CNc2nc3c(c(=O)[nH]2)CCC3)cc1)C(=O)NC1CNC1 | Collagenase 3 (MMP13, Homo sapiens, UniProt P45452) | enzyme activity, inhibitor | – | formic acid salt, with: fTHP-15(FAM) substrate | 74 nM |

Repeated from above:
| SMILES | target | test | test system | conditions | IC50 |
| --- | --- | --- | --- | --- | --- |
| O=C(NCCCCCCCn1ccc2ccccc21)Oc1ccccc1 | Fatty-acid amide hydrolase 1 (Faah, Rattus norvegicus, UniProt P97612) | – | rat brain homogenate | 60 min, 37 °C | 51 nM |
| N[C@H](C(=O)N1CCCC1)C1CCN(c2nccc3c(-c4ncc(Cl)cc4Cl)cccc23)CC1 | Protein-arginine deiminase type-4 (PADI4, Homo sapiens, UniProt Q9UM07) | enzyme activity, fluorescence quenching | – | with: Ca2+ 0.4 mM | 42.7 nM |
| NC[C@@H]1[C@@H](O)[C@@H](O)[C@H]2[C@H](O)CCCN21 | Alpha-mannosidase 2 (Homo sapiens, UniProt Q16706) | enzyme activity, inhibitor, 4-MU fluorogenic | – | with: Man-α-4MU 5 mM | 650 nM |
| O=C(O)c1cc2ccccc2n1Cc1ccccc1 | Indoleamine 2,3-dioxygenase 1 (IDO1, Homo sapiens, UniProt P14902) | inhibitor | – | – | > 500000 nM |
| CSCC[C@H](NC(=O)CNC(=O)[C@H](CCCCN)NC(=O)[C@H](CC(C)C)NC(=O)[C@@H]1CCCN1C(=O)[C@H](CO)NC(=O)[C@H](Cc1c[nH]cn1)NC(=O)[C@H](Cc1c[nH]c2ccccc12)NC(=O)[C@H](CCCNC(=N)N)NC(=O)[C@H](CC(C)C)NC(=O)[C@H](CCCNC(=N)N)NC(=O)[C@H](Cc1c[nH]c2ccccc12)NC(=O)[C@H](CS)NC(=O)CN1CCN(CC(=O)O)CCN(CC(=O)O)CCN(CC(=O)O)CC1)C(=O)O [copper-64 labelled] | PROM1 (Homo sapiens, UniProt O43490) | binding, saturation binding | Huh-7 | – | 52.5 nM |
